Results of several laboratories.
Every numbered part comes from another study and shows a few of its results, in no order.

Study 1
Target: Prothrombin, mature alpha-thrombin (F2, Homo sapiens, UniProt P00734)
Technique: aptamer microarray, sandwich
Form: DNA with 2'F-ANA
Matrix: in vitro
Tested at: 200 nM
Notes: whole 15-mer aptamer, many near background
Added: Cy3 exosite-II aptamer, 400 nM
Direction: higher = stronger binding
Measurement: mean fluorescence intensity
Oligonucleotide: GGTTGGTGTGGTTGG
2'F-ANA at 1 5 6 8 11 12 15: 90.7 a.u.
2'F-ANA at 1 2 3 6 7 9 11 12: 282 a.u.
2'F-ANA at 5 8 11 12 13: 110 a.u.
2'F-ANA at 1 3 4 5 7 9 11 13 14 15: 58.8 a.u.
2'F-ANA at 1 3 6 8 10 11 12 15: 93.4 a.u.
2'F-ANA at 1 2 3 7 8 10 11 14 15: 53.6 a.u.
2'F-ANA at 4 6 10 11 13 14 15: 51.5 a.u.
2'F-ANA at 2 4 5 8 10 12 14: 128 a.u.
2'F-ANA at 2 5 7 8 9 10 13 14 15: 53.3 a.u.
2'F-ANA at 3 4 10 11: 345 a.u.
2'F-ANA at 4 6 9 11 12 13 14 15: 94.8 a.u.
2'F-ANA at 1 2 6 8 11: 144 a.u.
2'F-ANA at 7 8 9 10 11 13 14 15: 114 a.u.
2'F-ANA at 1 7 10 12 13 15: 73.1 a.u.
2'F-ANA at 2 5 6 8 13 15: 57.3 a.u.
2'F-ANA at 1 2 3 4 5 6 7 8 10 11 12 14 15: 50.5 a.u.
2'F-ANA at 1 4 5 8 9 10 11 14: 47.7 a.u.
2'F-ANA at 1 2 3 4 8 9 11 12 13 15: 213 a.u.
2'F-ANA at 4 5 9 10 11 12 13 14: 44.1 a.u.
2'F-ANA at 6 7 8 9 10 11 12: 169 a.u.
2'F-ANA at 1 3 8 9 13 15: 247 a.u.
2'F-ANA at 1 2 3 4 5 7 9 10: 59.4 a.u.
2'F-ANA at 3 4 5 7 8 12: 271 a.u.
2'F-ANA at 1 2 4 5 7 10 11 12: 49.8 a.u.

Study 2
Target: RNA binding protein fox-1 homolog 2, RRM domain, GST-SBP tag (RBFOX2, Homo sapiens, UniProt O43251-10, residues 100-194)
Technique: RNA Bind-n-Seq
Form: RNA
Matrix: in vitro
Tested at: 365 nM
Notes: natural RNA segment, single round, ends assumed
Reference: no-protein control
Direction: higher = stronger binding
Measurement: RBNS enrichment (R)
Construct (chain): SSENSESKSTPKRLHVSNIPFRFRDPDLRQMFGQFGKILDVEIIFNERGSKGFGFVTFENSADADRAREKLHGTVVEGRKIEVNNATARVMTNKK
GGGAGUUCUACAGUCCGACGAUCCUGCAUGAAUCCGUGUGGCUGUCGUCUUUGUUUACCAUGGCUGCUGCUGUGGGACUGUUUUUUCCUCUGACAUGCCAAAUGUAACUUCUGUAAGUGGUGGAGAGUGCUGUUGGAAUUCUCGGGUGCCAA: 15.3
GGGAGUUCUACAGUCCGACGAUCUGAAAAUCACAUUUUGAUACAAACACCAGAUUUGAAAGUUCAAUGUGUUUGAUCUCAGGAGUCCAAAAUAAGUUGUUGCUUCUAGUGUCCUGCAUUUUAUUGACUGGGGUUGGAAUUCUCGGGUGCCAA: 0.567
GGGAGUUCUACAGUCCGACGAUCUGUGCUCAGCCUUCUCUGCAGCCUCUGUGAGUUUUCAGCACGUGUGCAGCCACACAGGCUGCAACCUUCCACUCGCAGCCGCUGCUGACACCUGGCUGCCGACCUCACUCUGGAAUUCUCGGGUGCCAA: 0.377
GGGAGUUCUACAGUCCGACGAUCUUUGGAAUUUUGUCUUCUUUAGCUGAGACCAAAUUAAACCUUGGUGCAUAAAGUGAGCUUAAAACUUGCCACUGUUUAGUAAGUUAGCCCCCAUAGAAUGUGACCCUGUCUGGAAUUCUCGGGUGCCAA: 0.37
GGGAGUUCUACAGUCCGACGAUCAGAUACAUUCUUUUAGGGAAGUGUAUGGUCAACAUAUAUUUACUCAGUAUACAGAUAACCACAAAGUUGUUAUUUUUAACCAAAAUAUACAUUUCAUAAUGUUGGCACUGUGGAAUUCUCGGGUGCCAA: 0.261
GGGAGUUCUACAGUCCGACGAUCCCAGACAAGGAGAGCGGAGGAGGAAGUCAUGGGAACGCAGCCUCCAGUUGUAGCAGGUUUCACUAUUCCUAUGCUGGGGUACACAGUGAGAGUACUCACUUUUCACUUGUUGGAAUUCUCGGGUGCCAA: 0.555
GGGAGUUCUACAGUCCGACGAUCAAUGCAUUUGAUGAGUGCUGGAAACUUCUUAAGUGCUUUACAGUUUGUUUUCAUUGUUUGCAGCGGAUCACUGGACAUCAAAGAUUCAUUGCACUUAUGAACAAGGAACCUGGAAUUCUCGGGUGCCAA: 0.505
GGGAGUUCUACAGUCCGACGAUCAUAUCAUUUUAAAAUGUCUUGGUCUUCUACUGCCUUGAAAAAUGACAAUUGUGAACAUGAUAGUUAAACUACCACUUUUUUUAACCAUUAUUAUGCAAAAUUUAGAAGAAUGGAAUUCUCGGGUGCCAA: 0.41
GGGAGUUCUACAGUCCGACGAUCACAGACGGACUUGGGUUAAGGGAAUGGGGACGACAGCUUUGGUGCUAAGUUAAUCAGAAAUUGCGAGCAUGCACAGUGGUAUGCCAGCCUGGGUGAUGCUUUCCUAGGAGUGGAAUUCUCGGGUGCCAA: 6.97
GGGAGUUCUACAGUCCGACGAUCCUAGUCCUCUUAGAAUUUCUUGCGCUUUGAUUUUUUUAGGGCUUGUGCCCUGUUUCACUUAUAGGGUCUAGAAUGCUUGUGUUGAGUAAAAAGGAGAUGCCCAAUAUUCAUGGAAUUCUCGGGUGCCAA: 2.77
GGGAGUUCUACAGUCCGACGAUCGCAGUUGUGCCCAGACCUUCAUGAAUGAAAACGUCAACGUUGAAGCGUUGCUGAUGGAAGCAGCGUGUGAAGGGAUACGGACAAUCUCUCAGUCGAUGAGCCCUCGUCUGUGGAAUUCUCGGGUGCCAA: 0.651
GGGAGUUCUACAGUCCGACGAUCUCAUCCCCAGCUGCCUAAGCUAGGGACACUCAAGUGCUUCCUUCCUUGCCCCAUCUUCCUCCCAACUGGAGGCCUCUGAGCCUCCCCUGUGCCUUGGGCCCUGAAGCCCCUGGAAUUCUCGGGUGCCAA: 0.519

Study 3
Target: Histone acetyltransferase KAT6A, both winged helices, GST fusion (KAT6A, Homo sapiens, UniProt Q92794, residues 1-181)
Technique: protein binding microarray
Form: double-stranded DNA, one strand shown
Matrix: in vitro
Tested at: not given
Notes: 8-mer, flanks averaged, mean of 2 arrays, mostly near background
Reference: not given
Direction: higher = stronger binding
Measurement: E-score
Construct (chain): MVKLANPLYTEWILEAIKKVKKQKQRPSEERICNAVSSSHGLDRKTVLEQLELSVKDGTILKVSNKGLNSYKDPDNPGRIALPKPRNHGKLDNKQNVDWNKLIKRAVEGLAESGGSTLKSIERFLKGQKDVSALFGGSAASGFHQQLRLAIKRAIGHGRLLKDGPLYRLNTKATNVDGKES
AGAGGACT: -0.11
AAAATCTC: -0.191
CAGCCCTC: -0.239
GACCACTC: -0.137
CTTTGTTC: 0.0254
GAATAGCA: -0.232
CCGGAACC: 0.175
CGGCTTCA: 0.217
TGTCTTAA: 0.0116
CTTAGGCC: -0.126
AATCTAAT: -0.0272
AGGGCCAA: -0.119
ACCTCGAT: -0.0997
AAGTTTCG: -0.00752
CGATGCAG: -0.00945
CGATACAA: 0.0119

Study 4
Target: Ras GTPase-activating protein-binding protein 1, RRM domain (G3BP1, Homo sapiens, UniProt Q13283)
Chain of UniProt Q13283 (whole entry, looked up): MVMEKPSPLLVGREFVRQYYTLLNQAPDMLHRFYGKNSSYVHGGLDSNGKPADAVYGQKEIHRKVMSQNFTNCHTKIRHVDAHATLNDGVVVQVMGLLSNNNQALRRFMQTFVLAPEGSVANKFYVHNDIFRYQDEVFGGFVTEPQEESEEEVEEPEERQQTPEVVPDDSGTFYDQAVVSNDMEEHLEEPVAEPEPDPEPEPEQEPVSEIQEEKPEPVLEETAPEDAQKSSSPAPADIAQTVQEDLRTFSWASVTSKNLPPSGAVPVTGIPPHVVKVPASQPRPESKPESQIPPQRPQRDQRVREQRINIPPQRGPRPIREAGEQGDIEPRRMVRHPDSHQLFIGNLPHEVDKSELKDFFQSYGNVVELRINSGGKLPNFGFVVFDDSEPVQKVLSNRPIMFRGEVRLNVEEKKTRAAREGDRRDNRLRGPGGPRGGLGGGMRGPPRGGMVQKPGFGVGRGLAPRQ
Technique: RNA Bind-n-Seq
Form: RNA
Matrix: in vitro
Tested at: 1 µM
Notes: whole 134-nt RNA, ends assumed
Added: 150 mM KCl
Reference: input library
Direction: higher = stronger binding
Measurement: log2 enrichment
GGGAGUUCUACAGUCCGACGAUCCACAUACAACACGCACCCACACAGACACAGAGGGAAGGGGUUGGGAUGGGGACAGGGUGCACAGCAGGGCGGGGUAGGACCCCAGCCCCUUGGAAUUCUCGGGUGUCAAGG: -0.0695
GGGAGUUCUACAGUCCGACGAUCCAAGUCCUGUGCUACACAUCGUAUGUACCGAAUCGGGAGGGAGGGAAAAAAAGGGAAAGUAUUAUGUUACGCCGUUCGGAUCUGCACUUCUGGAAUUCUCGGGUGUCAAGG: 0.461
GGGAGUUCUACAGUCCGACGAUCAGUCCUGUGCUACACAUCGUAUGUACCGAAUCGGGGUGGGGUGGGGUUUUUUUGGGGAAAGUAUUAUGUUACGCCGUUCGGAUCUGCACUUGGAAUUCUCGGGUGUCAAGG: 0.585
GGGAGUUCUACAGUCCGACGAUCUGGCCCUGGUGGCAUGCGGGGAGGAAGAGGUGGCCUCAUGGAUCGUGGUGGUCCCGGUGGAAUGUUCAGACGUGGCCGUGGUGGAGACAGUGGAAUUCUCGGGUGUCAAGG: 1.47
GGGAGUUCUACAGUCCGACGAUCUCAAGUCCUGUGCUACACAUCGUAUGUACCGAAUCGGGGUUUGGUUUGGUUUGGAAAGUAUUAUGUUACGCCGUUCGGAUCUGCACUUCCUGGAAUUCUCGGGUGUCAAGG: -0.226
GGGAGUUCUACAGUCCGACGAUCGUCCUGUGCUACACAUCGUAUGUACCGAAUCGGGAAAAAAAGGGUUUUUUUGGGUGGGAAAGUAUUAUGUUACGCCGUUCGGAUCUGCACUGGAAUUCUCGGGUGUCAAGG: 0.39
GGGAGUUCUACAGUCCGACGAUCCCUCAAGUCCUGUGCUACACAUCGUAUGUACCGAAUCGGGUUGGGUUGGUUGGAAAGUAUUAUGUUACGCCGUUCGGAUCUGCACUUCCAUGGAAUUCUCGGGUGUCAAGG: -0.22
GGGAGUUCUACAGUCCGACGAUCCCUCAGUGUCAUUUAUGAAAAGAGGGGACCAGAAGCCAAAGACUUAGUAUAUUUUCUUUUCCUCUGUCCCUUCCCCCAUAAGCCUCCAUUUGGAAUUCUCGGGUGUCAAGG: -0.209
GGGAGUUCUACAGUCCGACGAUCCUCAAGUCCUGUGCUACACAUCGUAUGUACCGAAUCGGGUUGGGGUUGGGUUGGAAAGUAUUAUGUUACGCCGUUCGGAUCUGCACUUCCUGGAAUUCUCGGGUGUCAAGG: -0.208
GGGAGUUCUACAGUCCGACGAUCUGCCAAAGUAUGGCAAGAAAUUGCUCCUGGAAAUACUGAUGCCACCCCAGUAACUCAUGGAACUGAAAGCUCUUGGCAUGAAAUAGCAGCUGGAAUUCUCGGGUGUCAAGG: 0.0546
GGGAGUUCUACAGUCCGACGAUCUCAUUCUAUACAGCCUUUUGUUUCAUUAGGAUCAGGCAGCUAGAGACAUGAAGAGGCUUGAAGAAAAGGACAAGGAAAGAAAAAACGUAAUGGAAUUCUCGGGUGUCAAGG: -0.0626
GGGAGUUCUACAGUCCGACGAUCCUGUGCUACACAUCGUAUGUACCGAAUCGGGGCCCCCCCGGGCCCCCCCGGGCCCCCCCGGGAAAGUAUUAUGUUACGCCGUUCGGAUCUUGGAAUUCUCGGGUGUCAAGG: -0.61
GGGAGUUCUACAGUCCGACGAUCGCAGGAAGUAAAAACAAAUGGAAAUGCUUCGGAUAGUGGCAGGGGUAGGGGUUGCUAAGGAAAGGGUGGGAUGGGAGUGGGUAAAGAGUUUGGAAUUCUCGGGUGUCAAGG: 0.839
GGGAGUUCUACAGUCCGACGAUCUGGCCCUGGUGGCAUGCGGGGAGGAAGAGGUGGCCUCAUCGAUCGUGGUGGUCCCGGUGGAAUGUUCAGAGGUGGCCGUGGUGGAGACAGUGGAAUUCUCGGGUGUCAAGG: 0.148

Some of these lines once more (study 3):
AGAGGACT: -0.11
AAAATCTC: -0.191
CAGCCCTC: -0.239
GACCACTC: -0.137
CTTTGTTC: 0.0254
GAATAGCA: -0.232
CCGGAACC: 0.175
CGGCTTCA: 0.217
TGTCTTAA: 0.0116
CTTAGGCC: -0.126
AATCTAAT: -0.0272
